Values quoted from earlier work, collected from citations in different studies.
Lines come from different studies, so protocols differ. Numbers after ± are the reported error. No end group written: not given here.
B1: side-chain stapled; chain CPINIFHPPPDC (also: sidechain bridge or staple (positions not given here))
Chain of UniProt P12821 (whole entry, looked up): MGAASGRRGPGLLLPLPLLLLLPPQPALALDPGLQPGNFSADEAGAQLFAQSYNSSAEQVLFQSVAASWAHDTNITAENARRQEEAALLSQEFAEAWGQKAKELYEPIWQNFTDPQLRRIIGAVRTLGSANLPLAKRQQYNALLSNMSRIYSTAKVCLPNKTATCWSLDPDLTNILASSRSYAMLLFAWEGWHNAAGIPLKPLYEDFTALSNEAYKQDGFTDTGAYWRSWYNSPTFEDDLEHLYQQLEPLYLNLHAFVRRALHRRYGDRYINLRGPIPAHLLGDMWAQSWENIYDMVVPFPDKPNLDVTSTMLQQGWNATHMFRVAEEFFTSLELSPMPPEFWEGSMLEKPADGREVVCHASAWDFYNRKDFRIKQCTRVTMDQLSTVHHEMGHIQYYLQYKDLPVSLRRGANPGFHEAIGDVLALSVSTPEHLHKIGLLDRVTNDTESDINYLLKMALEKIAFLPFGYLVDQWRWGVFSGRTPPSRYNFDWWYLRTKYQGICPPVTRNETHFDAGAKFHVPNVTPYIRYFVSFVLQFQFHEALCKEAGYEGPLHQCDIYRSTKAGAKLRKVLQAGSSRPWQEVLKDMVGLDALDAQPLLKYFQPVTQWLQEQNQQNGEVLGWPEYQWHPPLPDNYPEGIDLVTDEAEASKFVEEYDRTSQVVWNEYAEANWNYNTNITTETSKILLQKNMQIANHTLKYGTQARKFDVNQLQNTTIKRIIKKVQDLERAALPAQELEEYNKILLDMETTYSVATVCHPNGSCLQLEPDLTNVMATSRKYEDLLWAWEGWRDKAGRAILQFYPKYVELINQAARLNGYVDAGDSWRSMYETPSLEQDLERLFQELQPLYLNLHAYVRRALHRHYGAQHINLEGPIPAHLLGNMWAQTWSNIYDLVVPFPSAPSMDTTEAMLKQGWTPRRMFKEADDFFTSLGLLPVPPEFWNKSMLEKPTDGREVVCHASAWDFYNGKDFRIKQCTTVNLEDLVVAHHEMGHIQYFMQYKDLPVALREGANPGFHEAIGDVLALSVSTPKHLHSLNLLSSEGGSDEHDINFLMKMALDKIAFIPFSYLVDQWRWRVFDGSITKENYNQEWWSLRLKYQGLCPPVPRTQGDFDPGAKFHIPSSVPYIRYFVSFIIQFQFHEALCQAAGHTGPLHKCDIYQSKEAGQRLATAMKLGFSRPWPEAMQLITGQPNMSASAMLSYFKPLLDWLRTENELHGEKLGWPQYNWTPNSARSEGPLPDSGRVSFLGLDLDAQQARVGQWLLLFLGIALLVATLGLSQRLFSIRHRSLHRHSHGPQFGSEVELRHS

ILRKPWRIWRR — MIC (Staphylococcus aureus; peptide, ATCC 33591): 512 mg/L
PVTPSTTKSFK — Kd (Cdc4; binding; peptide): 7 µM
RRISSLESEV — Kd (CHAPSYN-110 PDZ domains 2/3; binding, fluorescence polarization; peptide): 2.26 µM
CD80 — Kd (CD28; binding; lower = stronger binding): ~4 µM
VRPGVKESLV — Kd (CHAPSYN-110 PDZ domain 3; binding, fluorescence polarization; peptide): 7.07 µM
CVRARTR — Kd (CD274 (Homo sapiens, UniProt Q9NZQ7); peptide): 0.281 µM
PCNA-associated factor p15 — Kd (PCNA; binding): 1.1 µM
pegcetacoplan — bioavailability (cynomolgus monkey; subcutaneous, dose not given): ~85%
HTHSYIETHV — Kd (CHAPSYN-110 PDZ domains 2/3; binding, fluorescence polarization; peptide): 4.12 µM
LKYKA — IC50 (ACE (Homo sapiens, UniProt P12821); enzyme activity, inhibitor; peptide): 0.0547 µM
SPDRDRESIV — Kd (CHAPSYN-110 PDZ domains 2/3; binding, fluorescence polarization; peptide): 16.2 µM
KRRWKKNFIAVSAANRFKKISSS — Kd (calmodulin EF1/EF2 domain; binding; peptide; pH 7.4): 0.08 ± 0.006 µM
darobactin — Kd (BamA (BAM complex); binding, isothermal titration calorimetry): 1.2 µM
MCFPRRSKSVKVKKGGCLRLFLIFFKTFCTKAKTKEIKKKGTKIKIVR — MIC (Escherichia coli; peptide): 50 µM
α-synuclein — Kd (Hsp70; monomers): ~10 µM
indirubin-3'-monoxime — IC50 (HUVEC; tube formation): 6.5 µM
C-peptide — Kd (Cu(II); pH 7.4): 0.01 µM
CCL3 — Kd (US28 wild type; binding, radioligand competition): 0.0013 µM
B1 — Kd (streptavidin; binding, surface plasmon resonance): 0.34 µM
TNSKQGETTV — Kd (CHAPSYN-110 PDZ domains 2/3; binding, fluorescence polarization; peptide): 8.04 µM

Some of these lines once more:
C-peptide — Kd (Cu(II); pH 7.4): 0.01 µM
ILRKPWRIWRR — MIC (Staphylococcus aureus; peptide, ATCC 33591): 512 mg/L
